# Measurements collected from several papers.
# Numbered parts are unrelated; each lists some results of a single study.
# UniProt Q9UPE1, sequence (whole entry, looked up): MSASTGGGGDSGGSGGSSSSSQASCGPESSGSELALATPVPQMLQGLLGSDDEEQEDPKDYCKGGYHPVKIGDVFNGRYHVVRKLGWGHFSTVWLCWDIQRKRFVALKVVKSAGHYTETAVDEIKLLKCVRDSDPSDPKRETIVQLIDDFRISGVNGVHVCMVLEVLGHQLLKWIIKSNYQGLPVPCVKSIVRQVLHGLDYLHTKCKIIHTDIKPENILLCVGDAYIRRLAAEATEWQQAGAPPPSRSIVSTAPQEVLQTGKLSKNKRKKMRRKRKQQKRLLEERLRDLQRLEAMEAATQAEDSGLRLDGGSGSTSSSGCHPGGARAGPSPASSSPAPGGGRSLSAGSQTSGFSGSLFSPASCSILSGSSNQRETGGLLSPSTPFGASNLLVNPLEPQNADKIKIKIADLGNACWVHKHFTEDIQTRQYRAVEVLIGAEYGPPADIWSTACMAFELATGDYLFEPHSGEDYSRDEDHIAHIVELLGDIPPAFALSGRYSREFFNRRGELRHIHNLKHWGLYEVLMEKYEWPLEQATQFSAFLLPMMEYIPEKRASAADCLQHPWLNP
# UniProt P15056, sequence (whole entry, unmodified, looked up): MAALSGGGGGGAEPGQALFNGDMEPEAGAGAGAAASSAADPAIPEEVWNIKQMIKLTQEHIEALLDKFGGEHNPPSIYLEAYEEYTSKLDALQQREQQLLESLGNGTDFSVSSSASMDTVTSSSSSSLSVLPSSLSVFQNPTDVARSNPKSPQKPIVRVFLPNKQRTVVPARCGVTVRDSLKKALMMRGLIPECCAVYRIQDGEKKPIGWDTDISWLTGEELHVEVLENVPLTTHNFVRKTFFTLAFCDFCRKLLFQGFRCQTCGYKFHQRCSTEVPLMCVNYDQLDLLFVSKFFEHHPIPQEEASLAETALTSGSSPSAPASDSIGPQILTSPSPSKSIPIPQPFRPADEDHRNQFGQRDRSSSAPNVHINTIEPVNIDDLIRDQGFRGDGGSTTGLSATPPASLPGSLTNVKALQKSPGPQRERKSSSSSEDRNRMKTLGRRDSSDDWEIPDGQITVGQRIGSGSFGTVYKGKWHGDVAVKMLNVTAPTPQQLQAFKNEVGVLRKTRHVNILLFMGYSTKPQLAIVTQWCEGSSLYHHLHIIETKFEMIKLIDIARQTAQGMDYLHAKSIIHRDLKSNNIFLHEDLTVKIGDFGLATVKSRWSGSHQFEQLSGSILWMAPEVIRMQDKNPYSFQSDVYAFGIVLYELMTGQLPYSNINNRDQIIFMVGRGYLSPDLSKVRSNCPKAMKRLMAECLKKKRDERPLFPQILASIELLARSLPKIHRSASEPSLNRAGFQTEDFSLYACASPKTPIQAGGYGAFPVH
# UniProt Q13546, sequence (whole entry, looked up): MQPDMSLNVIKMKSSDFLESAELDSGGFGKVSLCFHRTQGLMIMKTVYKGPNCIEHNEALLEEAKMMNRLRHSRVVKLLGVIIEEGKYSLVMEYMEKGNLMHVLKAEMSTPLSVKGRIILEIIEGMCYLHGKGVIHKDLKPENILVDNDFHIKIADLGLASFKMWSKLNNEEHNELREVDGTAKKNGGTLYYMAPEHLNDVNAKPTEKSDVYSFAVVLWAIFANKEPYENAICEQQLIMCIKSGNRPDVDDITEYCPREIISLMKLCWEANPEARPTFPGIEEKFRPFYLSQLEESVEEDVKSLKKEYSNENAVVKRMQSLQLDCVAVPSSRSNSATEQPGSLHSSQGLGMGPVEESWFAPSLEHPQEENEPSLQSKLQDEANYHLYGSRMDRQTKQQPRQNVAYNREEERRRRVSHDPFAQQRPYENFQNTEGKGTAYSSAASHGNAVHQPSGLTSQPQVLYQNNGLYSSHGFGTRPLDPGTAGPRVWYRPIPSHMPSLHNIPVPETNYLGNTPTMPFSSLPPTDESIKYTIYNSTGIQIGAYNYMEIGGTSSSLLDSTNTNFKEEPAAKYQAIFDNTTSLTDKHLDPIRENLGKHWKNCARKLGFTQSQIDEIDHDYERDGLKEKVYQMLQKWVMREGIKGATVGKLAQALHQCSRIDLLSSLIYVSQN
# UniProt P36894, sequence (whole entry, looked up): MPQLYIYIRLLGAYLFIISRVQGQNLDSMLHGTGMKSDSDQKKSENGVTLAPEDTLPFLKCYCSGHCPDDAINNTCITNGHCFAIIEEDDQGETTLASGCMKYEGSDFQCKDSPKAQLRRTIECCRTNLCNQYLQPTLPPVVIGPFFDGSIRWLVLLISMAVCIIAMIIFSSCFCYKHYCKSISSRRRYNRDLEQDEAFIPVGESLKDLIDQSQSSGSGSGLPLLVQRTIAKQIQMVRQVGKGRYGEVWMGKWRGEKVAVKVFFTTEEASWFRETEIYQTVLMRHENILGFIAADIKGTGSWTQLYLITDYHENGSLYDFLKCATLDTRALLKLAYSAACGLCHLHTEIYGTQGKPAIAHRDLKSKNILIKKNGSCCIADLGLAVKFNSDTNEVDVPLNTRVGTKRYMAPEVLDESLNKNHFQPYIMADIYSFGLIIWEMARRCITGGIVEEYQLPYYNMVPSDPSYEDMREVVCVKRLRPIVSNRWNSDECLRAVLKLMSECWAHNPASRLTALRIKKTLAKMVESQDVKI
# UniProt Q9BZL6, sequence (whole entry, looked up): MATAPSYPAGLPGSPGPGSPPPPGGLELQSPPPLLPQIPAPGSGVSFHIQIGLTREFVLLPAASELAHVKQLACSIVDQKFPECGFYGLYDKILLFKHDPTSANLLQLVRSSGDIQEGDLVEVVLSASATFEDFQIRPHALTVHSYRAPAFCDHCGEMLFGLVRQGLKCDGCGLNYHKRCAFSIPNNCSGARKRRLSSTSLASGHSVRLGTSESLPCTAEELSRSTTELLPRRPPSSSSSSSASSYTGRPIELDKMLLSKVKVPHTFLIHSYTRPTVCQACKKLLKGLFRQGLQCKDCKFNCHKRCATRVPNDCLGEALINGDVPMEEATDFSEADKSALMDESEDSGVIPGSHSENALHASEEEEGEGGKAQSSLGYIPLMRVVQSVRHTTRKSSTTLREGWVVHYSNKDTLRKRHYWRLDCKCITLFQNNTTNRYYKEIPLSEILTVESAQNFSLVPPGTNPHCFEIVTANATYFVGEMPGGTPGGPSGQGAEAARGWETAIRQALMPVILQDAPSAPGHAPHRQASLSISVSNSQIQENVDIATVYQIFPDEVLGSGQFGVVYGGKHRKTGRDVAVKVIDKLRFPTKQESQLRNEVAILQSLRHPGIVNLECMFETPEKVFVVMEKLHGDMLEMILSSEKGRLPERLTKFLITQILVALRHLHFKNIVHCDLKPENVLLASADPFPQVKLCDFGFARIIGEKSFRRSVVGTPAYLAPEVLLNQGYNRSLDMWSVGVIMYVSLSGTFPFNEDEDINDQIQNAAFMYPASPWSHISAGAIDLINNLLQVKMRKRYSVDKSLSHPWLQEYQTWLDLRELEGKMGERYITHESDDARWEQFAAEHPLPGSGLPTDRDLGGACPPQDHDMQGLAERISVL

# Sample 1
# Structure (SMILES): C[C@@H](c1cccc(C#N)c1)n1cc(Cl)cc(C(N)=O)c1=N
# Technique: competition with immobilised ligand
# Tested at: 1 µM
target,test,remaining binding
"PIK3CB (Homo sapiens, UniProt P42338)",cell-free assay,93%
"PIK3C3 (Homo sapiens, UniProt Q8NEB9)",cell-free assay,97%
"BMPR1A (Homo sapiens, UniProt P36894)",binding,100%
"SRPK3 (Homo sapiens, UniProt Q9UPE1)",cell-free assay,100%
"MAP2K6 (Homo sapiens, UniProt P52564)",cell-free assay,100%
"PRKD2 (Homo sapiens, UniProt Q9BZL6)",cell-free assay,91%
"ERBB3 (Homo sapiens, UniProt P21860)",cell-free assay,91%
"PLK2 (Homo sapiens, UniProt Q9NYY3)",cell-free assay,97%
"CAMK4 (Homo sapiens, UniProt Q16566)",cell-free assay,82%
"BRAF (Homo sapiens, UniProt P15056, V600E)",cell-free assay,95%
"RIPK1 (Homo sapiens, UniProt Q13546)",cell-free assay,100%
"Tyrosine-protein kinase JAK1, JH2 (JAK1, Homo sapiens, UniProt P23458)",cell-free assay,93%
"TESK1 (Homo sapiens, UniProt Q15569)",cell-free assay,74%

# Sample 2
# SMILES: C=CCc1ccc(O)c(-c2cc(CC=C)ccc2O)c1
# Read-out: chloride current
# Technique: whole-cell voltage clamp
# ANO1 del476-501/M544A: Anoctamin-1 (ANO1, Homo sapiens, UniProt Q5XXA6, del476-501/M544A)
# UniProt Q5XXA6, sequence (whole entry, unmodified, looked up): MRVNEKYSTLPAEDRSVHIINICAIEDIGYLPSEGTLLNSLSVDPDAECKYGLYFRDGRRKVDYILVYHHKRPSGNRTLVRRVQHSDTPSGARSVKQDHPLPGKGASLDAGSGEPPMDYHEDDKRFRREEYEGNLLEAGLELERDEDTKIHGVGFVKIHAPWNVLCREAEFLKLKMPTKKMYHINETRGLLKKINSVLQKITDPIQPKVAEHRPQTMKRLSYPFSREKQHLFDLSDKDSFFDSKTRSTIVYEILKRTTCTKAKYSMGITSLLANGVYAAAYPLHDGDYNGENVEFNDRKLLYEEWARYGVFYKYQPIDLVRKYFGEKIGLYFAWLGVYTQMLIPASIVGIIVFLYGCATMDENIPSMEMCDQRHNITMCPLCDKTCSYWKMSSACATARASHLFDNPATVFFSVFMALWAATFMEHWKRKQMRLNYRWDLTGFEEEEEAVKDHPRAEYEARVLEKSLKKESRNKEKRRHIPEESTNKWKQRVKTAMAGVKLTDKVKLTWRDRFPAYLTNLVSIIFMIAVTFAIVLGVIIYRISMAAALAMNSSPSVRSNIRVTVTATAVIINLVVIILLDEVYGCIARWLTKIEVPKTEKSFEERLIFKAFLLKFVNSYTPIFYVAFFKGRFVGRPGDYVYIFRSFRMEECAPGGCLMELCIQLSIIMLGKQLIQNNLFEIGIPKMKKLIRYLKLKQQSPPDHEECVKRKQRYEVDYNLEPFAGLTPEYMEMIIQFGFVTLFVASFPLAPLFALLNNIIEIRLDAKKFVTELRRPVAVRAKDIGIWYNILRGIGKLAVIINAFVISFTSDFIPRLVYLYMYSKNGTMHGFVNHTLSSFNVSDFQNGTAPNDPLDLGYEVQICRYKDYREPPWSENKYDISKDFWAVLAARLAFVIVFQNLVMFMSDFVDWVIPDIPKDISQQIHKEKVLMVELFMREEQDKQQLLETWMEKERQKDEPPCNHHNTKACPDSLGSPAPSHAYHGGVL
# ANO1 del476-501/R541D: Anoctamin-1 (ANO1, Homo sapiens, UniProt Q5XXA6, del476-501/R541D)
target,test,setting,IC50 [µM]
"Anoctamin-1 (ANO1, Homo sapiens, UniProt Q5XXA6, del476-501/K629I)",inhibitor,100 mV holding voltage,215
"Anoctamin-1 (ANO1, Homo sapiens, UniProt Q5XXA6, del476-501/E650A)",,membrane voltage 80 mV,17.1
ANO1 del476-501/M544A,,membrane voltage 40 mV,80.7
"Anoctamin-1 (ANO1, Homo sapiens, UniProt Q5XXA6, del476-501/L548A)",,membrane voltage 20 mV,31.1
"Anoctamin-1 (ANO1, Homo sapiens, UniProt Q5XXA6, del476-501/M544I)",inhibitor,100 mV holding voltage,176
ANO1 del476-501/R541D,inhibitor,R515D mutant at 60 mV,203
ANO1 del476-501/M544A,,membrane voltage -20 mV,80.4
ANO1 del476-501/R541D,inhibitor,R515D mutant at -20 mV,134
"Anoctamin-1 (ANO1, Homo sapiens, UniProt Q5XXA6, del476-501/F646A)",,membrane voltage 100 mV,29.2
"Anoctamin-1 (ANO1, Homo sapiens, UniProt Q5XXA6, del476-501/F803A)",,membrane voltage -40 mV,37.8

# Sample 3
# Target: Serine/threonine-protein kinase PAK 4 (PAK4, Homo sapiens, UniProt O96013)
# UniProt O96013, sequence (whole entry, looked up): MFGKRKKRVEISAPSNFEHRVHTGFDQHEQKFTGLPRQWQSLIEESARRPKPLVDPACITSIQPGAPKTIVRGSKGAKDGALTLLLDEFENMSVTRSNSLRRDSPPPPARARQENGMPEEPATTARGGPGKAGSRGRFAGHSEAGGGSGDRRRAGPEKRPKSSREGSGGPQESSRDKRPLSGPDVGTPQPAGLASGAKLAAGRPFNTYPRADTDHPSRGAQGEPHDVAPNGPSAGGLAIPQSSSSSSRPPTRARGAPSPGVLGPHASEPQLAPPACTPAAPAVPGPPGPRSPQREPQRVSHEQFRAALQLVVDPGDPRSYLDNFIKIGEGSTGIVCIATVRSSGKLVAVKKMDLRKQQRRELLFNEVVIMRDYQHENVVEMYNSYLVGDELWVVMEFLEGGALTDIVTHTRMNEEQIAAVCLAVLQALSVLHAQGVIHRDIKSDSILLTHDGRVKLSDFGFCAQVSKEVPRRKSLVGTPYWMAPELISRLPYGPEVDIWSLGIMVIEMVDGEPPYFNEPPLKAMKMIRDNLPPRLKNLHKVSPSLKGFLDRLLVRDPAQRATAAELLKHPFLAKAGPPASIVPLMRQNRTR
# Read-out: enzyme activity
# Action: inhibitor
# Tested at: 0.5 µM
# Baseline: control
SMILES,remaining activity [%]
CC(=O)c1ccc(N2CCOCC2)cc1O,103
CC[n+]1c(/C=C/N(C)c2ccccc2)n(-c2ccccc2)c2ccc(-c3nc4ccccc4s3)cc21,109
O=C1Cc2c([nH]c3ccc([N+](=O)[O-])cc23)-c2ccccc2N1,93.9
Cc1cc(Nc2nc(-c3ccccc3)nc3ccccc23)n[nH]1,84.2
NC(=O)c1ccc(N(C(N)=O)c2c(F)cccc2F)nc1-c1ccc(F)cc1F,92.6
Cc1ccc(NC2=CC(=O)c3sc(C)nc3C2=O)cc1,105
O=S(=O)(NCCNC/C=C/c1ccc(Br)cc1)c1cccc2cnccc12,98.9
Nc1nccc(-c2c(-c3ccc(F)cc3)ncn2C2CCNCC2)n1,95.1
COc1cc(Nc2c(C#N)cnc3cc(OCCCN4CCN(C)CC4)c(OC)cc23)c(Cl)cc1Cl,95.8
O=C1NC(=O)C(c2c[nH]c3ccccc23)=C1c1c[nH]c2ccccc12,102

# Sample 4
# SMILES: CC(C)n1cnc(-c2ccc(F)cc2)c1-c1ncc(C(=O)Nc2ccc(N3CCN(C)CC3)cc2)[nH]1
# Technique: phase 2a trial
# Species: idiopathic pulmonary fibrosis patients
setting,patients with aortic valve incompetence
"30 mg once daily, adverse event grade 3",0%
"dose not given, adverse event grade 2, all dose arms pooled",0%
"dose not given, adverse event grade 4, all dose arms pooled",0%
"30 mg once daily, adverse event grade 2",0%
"60 mg once daily, adverse event grade 1",0%
"dose not given, adverse event grade 5, all dose arms pooled",0%

# A few entries again (sample 1):
target,test,remaining binding
"PIK3C3 (Homo sapiens, UniProt Q8NEB9)",cell-free assay,97%
"BMPR1A (Homo sapiens, UniProt P36894)",binding,100%
"SRPK3 (Homo sapiens, UniProt Q9UPE1)",cell-free assay,100%
"MAP2K6 (Homo sapiens, UniProt P52564)",cell-free assay,100%
"PRKD2 (Homo sapiens, UniProt Q9BZL6)",cell-free assay,91%
"ERBB3 (Homo sapiens, UniProt P21860)",cell-free assay,91%
